Measurements collected from several papers.
A part holds a random share of what one study measured. Values joined by “and” are separate records of one study, mostly repeats; a detail may differ.
Sequence of UniProt P35372 (whole entry, looked up): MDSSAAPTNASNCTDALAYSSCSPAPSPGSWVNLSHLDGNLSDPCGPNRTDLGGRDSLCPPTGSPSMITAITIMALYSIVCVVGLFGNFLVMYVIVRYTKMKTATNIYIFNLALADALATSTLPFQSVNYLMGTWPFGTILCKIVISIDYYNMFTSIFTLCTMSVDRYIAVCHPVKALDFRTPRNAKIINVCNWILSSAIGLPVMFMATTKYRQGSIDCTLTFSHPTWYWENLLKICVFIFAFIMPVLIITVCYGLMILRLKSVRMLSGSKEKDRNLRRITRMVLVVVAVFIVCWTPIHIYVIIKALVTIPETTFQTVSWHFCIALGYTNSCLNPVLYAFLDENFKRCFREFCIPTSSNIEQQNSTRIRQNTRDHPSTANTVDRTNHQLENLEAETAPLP
Sequence of UniProt P11229 (whole entry, looked up): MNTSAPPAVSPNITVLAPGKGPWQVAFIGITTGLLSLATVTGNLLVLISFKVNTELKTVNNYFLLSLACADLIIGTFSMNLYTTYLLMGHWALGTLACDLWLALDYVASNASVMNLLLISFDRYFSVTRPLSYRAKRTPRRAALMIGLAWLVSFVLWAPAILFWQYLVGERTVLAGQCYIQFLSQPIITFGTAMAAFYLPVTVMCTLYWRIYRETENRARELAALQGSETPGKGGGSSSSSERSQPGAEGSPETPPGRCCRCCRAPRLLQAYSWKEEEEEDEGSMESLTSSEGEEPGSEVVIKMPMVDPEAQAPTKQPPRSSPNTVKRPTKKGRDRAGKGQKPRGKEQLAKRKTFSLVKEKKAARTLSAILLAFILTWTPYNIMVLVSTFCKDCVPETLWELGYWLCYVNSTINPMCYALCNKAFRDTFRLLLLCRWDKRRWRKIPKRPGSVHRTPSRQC
Sequence of UniProt P20309 (whole entry, looked up): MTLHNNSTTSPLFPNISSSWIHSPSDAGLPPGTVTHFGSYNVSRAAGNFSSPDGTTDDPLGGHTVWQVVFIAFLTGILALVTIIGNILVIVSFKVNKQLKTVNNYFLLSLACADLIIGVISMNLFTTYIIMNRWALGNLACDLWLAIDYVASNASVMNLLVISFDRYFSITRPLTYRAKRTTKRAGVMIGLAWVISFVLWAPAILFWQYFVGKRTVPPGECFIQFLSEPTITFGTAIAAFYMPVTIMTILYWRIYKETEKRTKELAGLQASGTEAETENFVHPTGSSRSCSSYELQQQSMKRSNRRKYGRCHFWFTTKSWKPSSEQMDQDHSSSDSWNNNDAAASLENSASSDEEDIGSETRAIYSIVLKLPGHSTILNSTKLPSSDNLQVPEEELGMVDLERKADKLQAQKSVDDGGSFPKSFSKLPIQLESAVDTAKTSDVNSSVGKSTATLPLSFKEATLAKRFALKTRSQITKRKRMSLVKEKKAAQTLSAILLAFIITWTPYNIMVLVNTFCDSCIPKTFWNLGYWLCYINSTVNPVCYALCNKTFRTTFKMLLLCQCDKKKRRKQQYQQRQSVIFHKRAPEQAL
Sequence of UniProt P21918 (whole entry, looked up): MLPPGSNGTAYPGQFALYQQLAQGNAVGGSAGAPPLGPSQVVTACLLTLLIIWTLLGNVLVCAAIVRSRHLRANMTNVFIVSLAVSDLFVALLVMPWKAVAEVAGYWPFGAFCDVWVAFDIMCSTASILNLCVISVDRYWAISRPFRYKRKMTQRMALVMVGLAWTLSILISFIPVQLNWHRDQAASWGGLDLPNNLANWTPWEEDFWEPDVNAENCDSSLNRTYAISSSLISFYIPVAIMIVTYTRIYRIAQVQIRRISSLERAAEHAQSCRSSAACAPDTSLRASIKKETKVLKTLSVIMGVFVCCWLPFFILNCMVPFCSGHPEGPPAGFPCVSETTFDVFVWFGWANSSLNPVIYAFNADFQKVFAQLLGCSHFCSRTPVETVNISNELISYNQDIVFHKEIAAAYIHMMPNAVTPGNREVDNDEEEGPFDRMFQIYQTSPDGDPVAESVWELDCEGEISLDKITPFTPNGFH
Sequence of UniProt P41143 (whole entry, looked up): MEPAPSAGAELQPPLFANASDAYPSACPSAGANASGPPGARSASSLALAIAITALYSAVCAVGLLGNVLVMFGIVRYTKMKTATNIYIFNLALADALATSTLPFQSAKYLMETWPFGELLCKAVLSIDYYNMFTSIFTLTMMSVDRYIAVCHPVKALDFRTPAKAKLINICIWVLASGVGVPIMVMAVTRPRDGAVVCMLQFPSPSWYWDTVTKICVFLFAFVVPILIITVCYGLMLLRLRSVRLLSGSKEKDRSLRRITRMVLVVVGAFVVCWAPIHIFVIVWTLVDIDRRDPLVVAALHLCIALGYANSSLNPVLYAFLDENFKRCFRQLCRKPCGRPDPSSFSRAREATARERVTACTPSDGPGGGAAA
Sequence of UniProt P41145 (whole entry, looked up): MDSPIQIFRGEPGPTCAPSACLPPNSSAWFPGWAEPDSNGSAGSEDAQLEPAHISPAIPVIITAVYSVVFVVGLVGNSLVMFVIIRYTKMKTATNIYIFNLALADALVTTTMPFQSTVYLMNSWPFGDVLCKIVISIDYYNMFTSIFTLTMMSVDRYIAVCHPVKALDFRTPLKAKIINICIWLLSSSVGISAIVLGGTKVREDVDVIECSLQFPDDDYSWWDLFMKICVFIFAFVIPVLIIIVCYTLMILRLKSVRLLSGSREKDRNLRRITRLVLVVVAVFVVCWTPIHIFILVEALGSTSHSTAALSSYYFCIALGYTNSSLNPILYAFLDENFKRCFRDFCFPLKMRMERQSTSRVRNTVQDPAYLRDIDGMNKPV

Study 1
Target: Bromodomain-containing protein 4, BD1 (BRD4, Homo sapiens, UniProt O60885)
Effect on: acetyl-histone H4 peptide binding
Technique: AlphaScreen displacement
Tested at: 50 µM
The inhibition of `COc1cc(C2=C(c3c[nH]c4ccccc34)C(=O)NC2=O)cc(OC)c1OC` is reported as 86%.
For `CN1C(=O)NC(=O)C(=CNc2ccc(F)cc2)C1=O`, the inhibition was 3.9%.
For `O=C1NC(=O)N(c2ccc(F)cc2)C(=O)C1=CNc1ccc(F)cc1`, the inhibition was 9.25%.
`CN1C(=O)C(=CNc2cccc(Cl)c2)C(=O)NC1=S` has an inhibition of 11.6%.

Study 2
Structure (SMILES): COc1ccc(-c2c(Nc3ccccn3)[nH]c3c(C4=CCCCC4)c(-c4ccccc4)nn3c2=O)cc1
Species: patients, advanced malignancies
Route: oral
Dose: dose not given
treatment-emergent Hyperbilirubinaemia — “patients with adverse event”: 12.5%.
For treatment-emergent Chills: “patients with adverse event” read 10%.
For treatment-emergent Dehydration: “patients with adverse event” read 12.5%.
treatment-emergent Anaemia — “patients with adverse event”: 20%.
The “patients with adverse event” was 17.5% (treatment-emergent Constipation).
It gave 10% for “patients with adverse event” (treatment-emergent Thrombocytopenia).
treatment-emergent Asthenia — “patients with adverse event”: 12.5%.
The “patients with adverse event” was 10% (treatment-emergent Pneumonia).

Study 3
Compound: CCOc1cc(N2C3COCC2CN(C(=O)[C@H]2C[C@H](O)CN2c2ccc(Cl)cc2)C3)ccc1Cl
Effect on: cell-free assay
Tested at: 10 µM
Muscarinic acetylcholine receptor M3 (CHRM3, Homo sapiens, UniProt P20309) — inhibition: 8.61%.
For Muscarinic acetylcholine receptor M1 (CHRM1, Homo sapiens, UniProt P11229): inhibition read -5.67%.
The inhibition was 53.6% (Kappa-type opioid receptor (OPRK1, Homo sapiens, UniProt P41145)).
It gave 2.54% for inhibition (D(1B) dopamine receptor (DRD5, Homo sapiens, UniProt P21918)).
Mu-type opioid receptor (OPRM1, Homo sapiens, UniProt P35372) — inhibition: 5.82%.
It gave 10.3% for inhibition (Delta-type opioid receptor (OPRD1, Homo sapiens, UniProt P41143)).

Study 4
Target: Eukaryotic initiation factor 4A-III (Homo sapiens, UniProt P38919)
Sequence of UniProt P38919 (whole entry, looked up): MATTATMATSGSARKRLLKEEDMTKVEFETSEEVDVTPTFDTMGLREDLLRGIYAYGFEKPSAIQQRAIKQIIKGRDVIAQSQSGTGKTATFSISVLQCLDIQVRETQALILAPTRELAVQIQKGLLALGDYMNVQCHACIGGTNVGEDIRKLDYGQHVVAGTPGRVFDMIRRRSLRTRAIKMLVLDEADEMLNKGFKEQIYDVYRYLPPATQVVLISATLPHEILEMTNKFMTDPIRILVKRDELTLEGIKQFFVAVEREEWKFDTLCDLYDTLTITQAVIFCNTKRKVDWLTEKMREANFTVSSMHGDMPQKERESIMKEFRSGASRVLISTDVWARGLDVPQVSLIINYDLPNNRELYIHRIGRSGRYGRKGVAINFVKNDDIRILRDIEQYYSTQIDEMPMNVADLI
Effect on: RNA clamping
Technique: fluorescence polarization
Tested at: concentration not given
With: FAM-labelled poly r(AG)8 RNA
Under “fluorescence polarization change”, `COC(=O)[C@@H]1[C@@H](O)[C@@]2(O)c3c(OC)cc(OC)cc3O[C@@]2(c2ccc(Br)cc2)[C@H]1c1ccccc1` is recorded as 6.8 mP.
`COc1ccc([C@@]23Oc4cc(OC)cc(OC)c4[C@]2(O)c2nc4n(c(=O)c2[C@H]3c2ccccc2)CCC4)cc1` — result for “fluorescence polarization change”: 36.2 mP and 47.5 mP.
`COC(=O)[C@@H]1[C@@H](c2ccccc2)[C@]2(c3ccc(OC)cc3)Oc3cc(OC)cc(OC)c3[C@@]23OC(c2ccccc2)=N[C@@]13O`: “fluorescence polarization change” 5.8 mP.

Some of these lines once more (study 2):
For treatment-emergent Dehydration: “patients with adverse event” read 12.5%.
The “patients with adverse event” was 10% (treatment-emergent Pneumonia).
